# Measured values of several laboratories.
# Lines come from different studies, so protocols differ. ± gives the spread as reported.
Structure (SMILES),tested on,assay,system,setting,scale,endpoint,result
NC[C@@H]1O[C@H](O[C@H]2[C@@H](O)[C@H](O[C@@H]3[C@@H](O)[C@H](N)C[C@H](N)[C@H]3O[C@H]3O[C@H](CO)[C@@H](OCCCO)[C@H](O)[C@H]3N)O[C@@H]2CO)[C@H](N)[C@@H](O)[C@@H]1O,ribosome with human cytosolic A site,"luciferase translation, cell-free translation",,,,IC50,> 700 µg/mL
CCCn1nnc2c(NCc3ccc(C)s3)nc(N[C@H](CC)CO)nc21,Cav2.1 calcium channel,"tail current integral, whole-cell patch clamp",HEK293 transfected with Cav2.1,,,EC50,7.11 µM
COc1ccc2ccc3c(c2c1)C=[N+]1C2CCCCC2[N+]2=Cc4ccc(OCCN5CCCCC5)cc4[O][Au-]21[O]3.F[P-](F)(F)(F)(F)F (centres unmarked),Klebsiella pneumoniae thioredoxin reductase,"cellular enzyme activity, inhibitor","Klebsiella pneumoniae, carbapenem-resistant",4 h,,IC50,1.08 µM
CCN(Cc1ccccc1)C(=O)CCc1nc(CN2CCN(C(=O)Cc3ccc(OC)c(OC)c3)CC2)no1,"Potassium voltage-gated channel subfamily KQT member 4 (KCNQ4, Homo sapiens, UniProt P56696)","potassium current, whole-cell patch clamp","CHO, stable",30 nM,,activation V1/2,-29.3 ± 1.64 mV
N=C(N)NCCC[C@@H]1NC(=O)[C@H](CCCCNC(=O)CCOCCOCCOCCOCCNC(=O)CC[C@H](NC(=O)CCOCCOCCOCCOCCNC(=O)CC[C@H](NC(=O)CN2CCN(CC(=O)O)CCN(CC(=O)O)CCN(CC(=O)O)CC2)C(=O)NCCOCCOCCOCCOCCC(=O)N[C@@H](CCC(=O)NCCOCCOCCOCCOCCC(=O)NCCCC[C@@H]2NC(=O)[C@@H](Cc3ccccc3)NC(=O)[C@H](CC(=O)O)NC(=O)CNC(=O)[C@H](CCCNC(=N)N)NC2=O)C(=O)NCCOCCOCCOCCOCCC(=O)NCCCC[C@@H]2NC(=O)[C@@H](Cc3ccccc3)NC(=O)[C@H](CC(=O)O)NC(=O)CNC(=O)[C@H](CCCNC(=N)N)NC2=O)C(=O)NCCOCCOCCOCCOCCC(=O)NCCCC[C@@H]2NC(=O)[C@@H](Cc3ccccc3)NC(=O)[C@H](CC(=O)O)NC(=O)CNC(=O)[C@H](CCCNC(=N)N)NC2=O)NC(=O)[C@@H](Cc2ccccc2)NC(=O)[C@H](CC(=O)O)NC(=O)CNC1=O [indium-111 labelled],,,"female athymic nude mice, heart","intravenous, 3 µCi, 0.5 h, U-87 MG glioma xenograft",,tissue uptake,0.57 ± 0.15 %ID/g
CC[C@H](C)[C@@H]1NC(=O)[C@H](Cc2ccc(O)cc2)NC(=O)[C@@H](N)CSSC[C@@H](C(=O)N2CCC[C@H]2C(=O)N2CCC[C@H]2C(=O)NCC(N)=O)NC(=O)[C@H](CC(N)=O)NC(=O)[C@H](CCC(N)=O)NC1=O,oxytocin receptor (titi monkey),membrane hyperpolarisation,CHO cells,,,Emax,5350 RFU
C[C@H](NC(=O)[C@H](CCC(N)=O)NC(=O)[C@H](C)NC(=O)[C@H](CCCCN)NC(=O)[C@H](CCC(N)=O)NC(=O)[C@H](C)NC(=O)[C@H](CCCCN)NC(=O)[C@H](CCC(N)=O)NC(=O)[C@H](C)NC(=O)[C@H](CCC(N)=O)NC(=O)[C@H](CCCCN)NC(=O)[C@H](C)NC(=O)[C@H](CCC(N)=O)NC(=O)[C@H](CCCCN)NC(=O)[C@H](C)NC(=O)[C@H](CCC(N)=O)NC(=O)[C@H](C)NC(=O)[C@H](CCCCN)NC(=O)[C@H](CCC(N)=O)NC(=O)[C@H](C)NC(=O)[C@H](CCCCN)NC(=O)[C@H](CO)NC(=O)[C@H](Cc1ccc(O)cc1)NC(=O)CNC(=O)CNC(=O)CN)C(=O)N[C@@H](CCCCN)C(=O)N[C@@H](CCC(N)=O)C(=O)N[C@@H](C)C(=O)N[C@@H](CCCCN)C(=O)N[C@@H](CCC(N)=O)C(=O)O,,"binding, SPR two-state model",rVλ6Wil fibrils,300 nM,,Rmax,97.6 RU
N=C(N)NCCC[C@@H]1NC(=O)[C@H](CCCCNC(=O)CC[C@H](NC(=O)CCOCCOCCOCCOCCNC(=O)CN2CCN(CC(=O)O)CCN(CC(=O)O)CCN(CC(=O)O)CC2)C(=O)NCCCC[C@@H]2NC(=O)[C@@H](Cc3ccccc3)NC(=O)[C@H](CC(=O)O)NC(=O)CNC(=O)[C@H](CCCNC(=N)N)NC2=O)NC(=O)[C@@H](Cc2ccccc2)NC(=O)[C@H](CC(=O)O)NC(=O)CNC1=O [indium-111 labelled],,,"athymic nude mice, female, U-87 MG glioma xenograft, tumour and lungs","intravenous, 24 h",baseline: tumour over lungs,tumour to tissue ratio,3.95 ± 0.77
CN[C@](C)(C[18F])C(=O)O,SK-OV-3 tumour model,,"host not given, liver","1 h, tumour-bearing",,tracer uptake,3 %ID/g
COCOC[C@H]1O[C@H](O[C@H]2[C@H](O[C@@H]3O[C@H](CO)[C@@H](O[C@H]4O[C@@H](CN)[C@@H](O)[C@H](O)[C@H]4N)[C@H]3O)[C@@H](O)[C@H](N)C[C@@H]2N)[C@H](N)[C@@H](O)[C@@H]1OCOC,Mycobacterium smegmatis ribosome wild type,"translation, cell-free luciferase synthesis",,,,IC50,10.9 ± 0.53 µg/mL
COc1cc(C(=O)NCCOCCOCCOCCNC(=O)c2ccc([18F])nc2)ccc1NC(=O)C1NC(CC(C)(C)C)C(C#N)(c2ccc(Cl)cc2F)C1c1cccc(Cl)c1F (centres unmarked),SJSA-1 tumour model,,"host not given, muscle","1 h, tumour-bearing",,tracer uptake,0.85 %ID/g
C=CCn1cnc2c(NCc3ccc(C)s3)nc(N[C@H](CC)CO)nc21,Cav2.1 calcium channel,perforated patch clamp,HEK293 transfected,"50 µM, applied during step to +10 mV",baseline: maximum,tail current increase,25 to 30%
CCCCO[C@H]1[C@H](O)[C@@H](N)[C@@H](O[C@H]2[C@H](O[C@@H]3O[C@H](CO)[C@@H](O[C@H]4O[C@@H](CN)[C@@H](O)[C@H](O)[C@H]4N)[C@H]3O)[C@@H](O)[C@H](N)C[C@@H]2N)O[C@@H]1CO,Mycobacterium smegmatis ribosome wild type,"translation, cell-free luciferase synthesis",,,,IC50,0.3 ± 0.03 µg/mL
COc1ccc2ccc3c(c2c1)C=[N+]1C2CCCCC2[N+]2=Cc4cccc(OC)c4[O][Au-]21[O]3.F[P-](F)(F)(F)(F)F (centres unmarked),Klebsiella pneumoniae glutathione reductase,inhibitor,carbapenem-resistant,added: GSSG and NADPH,,IC50,11.6 µM
COC[C@@H](NC(C)=O)C(=O)NCc1ccc(OCc2cccc(OC(F)(F)F)c2)cc1,voltage-gated sodium channel,whole-cell patch clamp,rat embryonic cortical neurons,"10 µM, at -50 mV",,fraction of inactivated channels,0.92 ± 0.09
CN(C)CC1CCCCC1(O)c1cccc(O)c1 (centres unmarked),,,Caco-2,"100 µM, 3 h, pH 7.4",,efflux ratio,1.1
COCOC[C@H]1O[C@H](O[C@H]2[C@H](O[C@@H]3O[C@H](CO)[C@@H](O[C@H]4O[C@@H](CN)[C@@H](O)[C@H](O)[C@H]4N)[C@H]3O)[C@@H](O)[C@H](N)C[C@@H]2N)[C@H](N)[C@@H](O)[C@@H]1O,ribosome with human cytosolic A site,"luciferase translation, cell-free translation",,,,IC50,171 ± 22.5 µg/mL
CC[C@H](C)[C@H](NC(=O)[C@@H](NC(=O)[C@H](CC(=O)O)NC(C)=O)[C@@H](C)O)C(=O)N[C@@H](CCCNC(=N)N)C(=O)N[C@@H](CC(C)C)C(=O)N[C@@H](CC(C)C)C(=O)N[C@@H](Cc1ccccc1)C(=O)N[C@@H](CCC(N)=O)C(=O)N[C@@H](CC(C)C)C(=O)N[C@@H](CCSC)C(=O)N[C@@H](CCCNC(=N)N)C(=O)N1CCC[C@H]1C(=O)N1CCC[C@H]1C(=O)N[C@@H](CC(N)=O)C(=O)N[C@@H](CCSC)C(=O)N[C@H](C(=O)N1CCC[C@H]1C(=O)N[C@@H](C)C(=O)N[C@H](C(=O)N[C@@H](CC(N)=O)C(=O)N[C@@H](C)C(N)=O)C(C)C)[C@@H](C)O,,measured: HA-23 tetramer,"tetramer+ CD4 T cells, PBMC, healthy adults, HLA-DRB1*0101","dose not given, CD62L−CD45RA+/− or CD62L+CD45RA−",,antigen-experienced T cells,87%
Cc1cn(C2CCC(OC(C(=O)O)P(=O)(O)O)C2)c(=O)[nH]c1=O (racemic),HIV-1 reverse transcriptase M184V/E138K,"enzyme activity, inhibitor",,"added: poly(rA)·dT, [3H]dTTP",baseline: mutant over wild type,fold resistance,3 fold
CC(C)[C@H](NC(=O)CNC(=O)CNC(=O)[C@H](CCCNC(=N)N)NC(=O)[C@H](CS)NC(=O)[C@H](CCCNC(=N)N)NC(=O)[C@H](Cc1c[nH]cn1)NC(=O)CN)C(=O)N[C@@H](CS)C(=O)N[C@@H](Cc1ccc(O)cc1)C(=O)N[C@@H](CCCCN)C(=O)N[C@@H](CCCCN)C(=O)N[C@@H](CCCCN)C(=O)NCC(=O)NCC(=O)NCC(=O)N[C@@H](CO)C(=O)N[C@@H](CCCCNC(=O)CCCC[C@@H]1SC[C@@H]2NC(=O)N[C@@H]21)C(=O)O,tobacco mosaic virus coat protein,Western blot,Tobacco mosaic virus,,,coat protein binding,no binding
C[C@]12CC[C@H](O)CC1CCC1C2[C@H](O)C(=O)[C@]2(C)[C@@H](c3ccc(=O)oc3)CC[C@]12O (some centres unmarked),mixed recombinant human SULTs,"sulfation, substrate",,,,Vmax,0.63 ± 0.025 nmol/min/mg
C[C@H](NC(=O)[C@@H]1CCCN1C(=O)[C@H](Cc1ccc(O)cc1)NC(=O)CNC(=O)[C@H](CO)NC(=O)[C@H](Cc1ccccc1)NC(=O)[C@@H](N)[C@@H](C)O)C(=O)N[C@@H](Cc1ccccc1)C(=O)O,"mu opioid receptor, rat","ion current, agonist, whole-cell patch clamp","Sprague Dawley rat, supraoptic nucleus neurons, brain slice","100 nM, after CTOP washout",,outward current,31 ± 8.3 pA
COC[C@@H](NC(C)=O)C(=O)NCc1ccc(OCc2cccc(Cl)c2)cc1,voltage-gated sodium channel,whole-cell patch clamp,rat embryonic cortical neurons,10 µM,,V1/2 of fast inactivation,-60 ± 2.1 mV
NC[C@@H]1O[C@H](O[C@H]2[C@@H](O)[C@H](O[C@@H]3[C@@H](O)[C@H](N)C[C@H](N)[C@H]3O[C@H]3O[C@@H]4COCO[C@H]4[C@H](O)[C@H]3N)O[C@@H]2CO)[C@H](N)[C@@H](O)[C@@H]1O,ribosome with human cytosolic A site,"luciferase translation, cell-free translation",,,,IC50,241 ± 69.8 µg/mL
CCCCCCCCC(=O)NCc1ccc(O)c(OC)c1,mAb 5-3H1,"antibody binding, indirect competitive ELISA",,added: coating antigen 2-OVA,,IC50,0.0083 µg/mL
CCO[C@H]1[C@H](O)[C@@H](N)[C@@H](O[C@H]2[C@H](O[C@@H]3O[C@H](CO)[C@@H](O[C@H]4O[C@@H](CN)[C@@H](O)[C@H](O)[C@H]4N)[C@H]3O)[C@@H](O)[C@H](N)C[C@@H]2N)O[C@@H]1CO,ribosome with human cytosolic A site,"luciferase translation, cell-free translation",,,,IC50,94.7 ± 31 µg/mL
CC[C@H](CO)Nc1nc(NCc2ccc(C)s2)n2ncc(C(C)C)c2n1,Cav2.1 calcium channel,"tail current integral, whole-cell patch clamp",HEK293 transfected with Cav2.1,,,EC50,2.49 µM
CCCCCO[C@H]1[C@H](O)[C@@H](N)[C@@H](O[C@H]2[C@H](O[C@@H]3O[C@H](CO)[C@@H](O[C@H]4O[C@@H](CN)[C@@H](O)[C@H](O)[C@H]4N)[C@H]3O)[C@@H](O)[C@H](N)C[C@@H]2N)O[C@@H]1CO,ribosome with human cytosolic A site,"luciferase translation, cell-free translation",,,,IC50,92.3 ± 9.2 µg/mL
C(#C[P+](c1ccccc1)(c1ccccc1)c1ccccc1)c1ccccc1,HSP70 human,pull-down,H1299,"1 h pretreatment, 8-fold excess, added: 20 µM B-PES 5 h",,HSP70 bound to B-PES,decreased

# Repeated from above:
Structure (SMILES),tested on,assay,system,setting,scale,endpoint,result
CCN(Cc1ccccc1)C(=O)CCc1nc(CN2CCN(C(=O)Cc3ccc(OC)c(OC)c3)CC2)no1,"Potassium voltage-gated channel subfamily KQT member 4 (KCNQ4, Homo sapiens, UniProt P56696)","potassium current, whole-cell patch clamp","CHO, stable",30 nM,,activation V1/2,-29.3 ± 1.64 mV
N=C(N)NCCC[C@@H]1NC(=O)[C@H](CCCCNC(=O)CCOCCOCCOCCOCCNC(=O)CC[C@H](NC(=O)CCOCCOCCOCCOCCNC(=O)CC[C@H](NC(=O)CN2CCN(CC(=O)O)CCN(CC(=O)O)CCN(CC(=O)O)CC2)C(=O)NCCOCCOCCOCCOCCC(=O)N[C@@H](CCC(=O)NCCOCCOCCOCCOCCC(=O)NCCCC[C@@H]2NC(=O)[C@@H](Cc3ccccc3)NC(=O)[C@H](CC(=O)O)NC(=O)CNC(=O)[C@H](CCCNC(=N)N)NC2=O)C(=O)NCCOCCOCCOCCOCCC(=O)NCCCC[C@@H]2NC(=O)[C@@H](Cc3ccccc3)NC(=O)[C@H](CC(=O)O)NC(=O)CNC(=O)[C@H](CCCNC(=N)N)NC2=O)C(=O)NCCOCCOCCOCCOCCC(=O)NCCCC[C@@H]2NC(=O)[C@@H](Cc3ccccc3)NC(=O)[C@H](CC(=O)O)NC(=O)CNC(=O)[C@H](CCCNC(=N)N)NC2=O)NC(=O)[C@@H](Cc2ccccc2)NC(=O)[C@H](CC(=O)O)NC(=O)CNC1=O [indium-111 labelled],,,"female athymic nude mice, heart","intravenous, 3 µCi, 0.5 h, U-87 MG glioma xenograft",,tissue uptake,0.57 ± 0.15 %ID/g
